Experimental data collected from several papers.
Lines come from different studies, so protocols differ. Values joined by “and” are separate records of one study, mostly repeats; a detail may differ. ± gives the spread as reported.
UniProt P21554, sequence (whole entry, unmodified, looked up): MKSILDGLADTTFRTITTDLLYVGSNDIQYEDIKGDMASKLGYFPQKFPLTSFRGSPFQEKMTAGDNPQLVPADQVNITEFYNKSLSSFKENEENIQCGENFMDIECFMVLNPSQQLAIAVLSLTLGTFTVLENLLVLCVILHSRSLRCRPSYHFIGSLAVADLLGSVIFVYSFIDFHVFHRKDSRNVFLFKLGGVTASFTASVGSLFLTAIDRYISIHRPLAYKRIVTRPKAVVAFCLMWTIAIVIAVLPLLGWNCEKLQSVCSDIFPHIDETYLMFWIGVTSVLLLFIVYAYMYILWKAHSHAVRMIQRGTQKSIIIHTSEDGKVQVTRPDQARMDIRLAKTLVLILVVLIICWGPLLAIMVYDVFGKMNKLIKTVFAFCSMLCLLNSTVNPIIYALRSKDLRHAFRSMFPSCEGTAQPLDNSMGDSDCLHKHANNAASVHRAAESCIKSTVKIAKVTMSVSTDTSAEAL
UniProt Q13418, sequence (whole entry, looked up): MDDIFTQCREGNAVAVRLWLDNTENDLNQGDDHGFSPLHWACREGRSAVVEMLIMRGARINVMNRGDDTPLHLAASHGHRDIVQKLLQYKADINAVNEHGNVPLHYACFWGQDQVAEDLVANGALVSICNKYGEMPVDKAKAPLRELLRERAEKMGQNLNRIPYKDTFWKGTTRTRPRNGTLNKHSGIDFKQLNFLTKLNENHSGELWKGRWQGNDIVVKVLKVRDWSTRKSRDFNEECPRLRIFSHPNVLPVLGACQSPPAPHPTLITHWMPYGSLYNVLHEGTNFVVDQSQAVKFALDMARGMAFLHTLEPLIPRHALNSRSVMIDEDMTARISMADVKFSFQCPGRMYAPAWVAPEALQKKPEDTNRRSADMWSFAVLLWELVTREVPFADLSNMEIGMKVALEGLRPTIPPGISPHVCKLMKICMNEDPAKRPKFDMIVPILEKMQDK
UniProt P51817, sequence (whole entry, looked up): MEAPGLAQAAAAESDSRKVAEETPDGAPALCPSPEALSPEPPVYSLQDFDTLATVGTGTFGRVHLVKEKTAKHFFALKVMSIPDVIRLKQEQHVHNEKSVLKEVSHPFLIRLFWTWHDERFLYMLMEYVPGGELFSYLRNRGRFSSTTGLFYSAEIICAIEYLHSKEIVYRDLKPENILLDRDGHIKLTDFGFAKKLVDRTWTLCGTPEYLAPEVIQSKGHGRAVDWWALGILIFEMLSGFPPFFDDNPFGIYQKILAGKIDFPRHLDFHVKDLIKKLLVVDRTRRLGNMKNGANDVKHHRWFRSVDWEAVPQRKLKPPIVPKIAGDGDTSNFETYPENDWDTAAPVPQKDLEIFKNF
UniProt P42336, sequence (whole entry, looked up): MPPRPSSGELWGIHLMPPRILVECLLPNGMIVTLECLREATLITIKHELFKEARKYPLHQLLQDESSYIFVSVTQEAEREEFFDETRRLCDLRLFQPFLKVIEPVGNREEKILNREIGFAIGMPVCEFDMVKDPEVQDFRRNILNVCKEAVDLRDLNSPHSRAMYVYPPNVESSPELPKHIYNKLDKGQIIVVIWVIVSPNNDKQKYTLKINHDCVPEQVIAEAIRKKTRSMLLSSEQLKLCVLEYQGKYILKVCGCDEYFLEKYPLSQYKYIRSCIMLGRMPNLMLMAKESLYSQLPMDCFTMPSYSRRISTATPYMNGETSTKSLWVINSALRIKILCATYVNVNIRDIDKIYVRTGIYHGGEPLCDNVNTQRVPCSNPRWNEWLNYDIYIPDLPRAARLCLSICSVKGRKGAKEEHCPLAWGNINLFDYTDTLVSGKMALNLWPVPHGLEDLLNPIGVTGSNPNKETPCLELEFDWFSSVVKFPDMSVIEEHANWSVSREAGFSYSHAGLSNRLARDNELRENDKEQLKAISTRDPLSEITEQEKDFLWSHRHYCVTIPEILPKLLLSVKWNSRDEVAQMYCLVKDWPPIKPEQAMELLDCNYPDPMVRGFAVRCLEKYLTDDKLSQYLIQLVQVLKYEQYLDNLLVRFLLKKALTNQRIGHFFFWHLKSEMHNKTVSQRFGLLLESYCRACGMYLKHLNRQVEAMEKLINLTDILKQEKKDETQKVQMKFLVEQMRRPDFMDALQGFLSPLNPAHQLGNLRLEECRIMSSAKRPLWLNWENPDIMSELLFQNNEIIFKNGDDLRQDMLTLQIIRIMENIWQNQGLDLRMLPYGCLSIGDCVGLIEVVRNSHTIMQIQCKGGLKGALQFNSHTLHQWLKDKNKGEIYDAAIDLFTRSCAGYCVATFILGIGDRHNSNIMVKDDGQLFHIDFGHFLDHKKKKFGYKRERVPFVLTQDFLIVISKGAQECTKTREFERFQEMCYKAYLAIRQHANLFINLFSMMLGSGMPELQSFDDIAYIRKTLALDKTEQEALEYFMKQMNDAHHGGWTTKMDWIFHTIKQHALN
UniProt P32246, sequence (whole entry, looked up): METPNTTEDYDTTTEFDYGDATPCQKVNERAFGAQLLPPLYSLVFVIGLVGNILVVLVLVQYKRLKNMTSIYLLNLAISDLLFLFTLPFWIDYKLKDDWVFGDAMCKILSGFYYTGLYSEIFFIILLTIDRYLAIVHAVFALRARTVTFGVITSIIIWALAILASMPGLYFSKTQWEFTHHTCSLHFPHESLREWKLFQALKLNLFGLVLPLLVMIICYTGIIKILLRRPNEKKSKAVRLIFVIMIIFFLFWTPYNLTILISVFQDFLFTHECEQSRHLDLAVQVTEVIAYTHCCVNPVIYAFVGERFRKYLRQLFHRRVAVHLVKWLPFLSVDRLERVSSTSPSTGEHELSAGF
UniProt Q01959, sequence (whole entry, unmodified, looked up): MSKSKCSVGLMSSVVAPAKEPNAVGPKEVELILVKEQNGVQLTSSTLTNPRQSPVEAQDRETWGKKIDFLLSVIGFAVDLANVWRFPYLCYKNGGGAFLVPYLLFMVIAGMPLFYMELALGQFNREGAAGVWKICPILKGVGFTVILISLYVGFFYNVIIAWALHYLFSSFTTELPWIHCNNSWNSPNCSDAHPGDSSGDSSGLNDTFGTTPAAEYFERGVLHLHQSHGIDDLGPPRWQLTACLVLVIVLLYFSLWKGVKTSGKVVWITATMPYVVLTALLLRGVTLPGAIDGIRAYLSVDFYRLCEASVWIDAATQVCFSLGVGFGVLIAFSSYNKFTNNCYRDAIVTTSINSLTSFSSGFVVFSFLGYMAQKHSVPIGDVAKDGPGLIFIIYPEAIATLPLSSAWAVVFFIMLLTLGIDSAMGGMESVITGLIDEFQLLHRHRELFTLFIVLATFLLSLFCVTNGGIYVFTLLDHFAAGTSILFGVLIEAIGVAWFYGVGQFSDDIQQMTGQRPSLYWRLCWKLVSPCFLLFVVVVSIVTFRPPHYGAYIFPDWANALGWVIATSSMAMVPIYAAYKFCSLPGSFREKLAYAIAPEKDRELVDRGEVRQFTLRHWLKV
UniProt P49137, sequence (whole entry, looked up): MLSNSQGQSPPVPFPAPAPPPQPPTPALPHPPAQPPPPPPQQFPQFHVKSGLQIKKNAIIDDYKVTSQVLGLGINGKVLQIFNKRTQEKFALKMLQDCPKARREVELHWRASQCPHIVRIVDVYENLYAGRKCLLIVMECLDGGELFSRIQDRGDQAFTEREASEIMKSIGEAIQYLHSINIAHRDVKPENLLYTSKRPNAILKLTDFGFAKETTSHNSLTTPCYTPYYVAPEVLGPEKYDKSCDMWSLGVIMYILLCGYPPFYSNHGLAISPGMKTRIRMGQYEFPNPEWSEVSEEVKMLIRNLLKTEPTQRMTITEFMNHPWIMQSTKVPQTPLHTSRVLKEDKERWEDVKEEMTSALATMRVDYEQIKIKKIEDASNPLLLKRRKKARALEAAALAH

Structure (SMILES) = Cc1ccc(OCCN(C)C)cc1C(=O)N[C@H](C)c1cc(-c2cncs2)nc2ccccc12; tested on = Vero E6; setting = 250 µM; quantity = viability; result = -3.85% and 0.192%
Structure (SMILES) = O=C1NC2(CC2)COc2ncc(F)cc2[C@H]2COCCN2c2ccn3ncc1c3n2; test system = Sprague-Dawley rat, female, kidneys; setting = oral, 2.5 mg/kg/day, 4 weeks, end of treatment; quantity = organ-to-body weight ratio; result = 0.621 ± 0.034%
Structure (SMILES) = O=C1NC(=O)c2c1c1cc(F)c[n+]3c1c1c2c2cc(O)ccc2[n]1[Ru-4]312([N]=C=S)[S+]3CC[S+]1CC[S+]2CC3 (stereo not shown); tested on = cAMP-dependent protein kinase catalytic subunit PRKX (PRKX, Homo sapiens, UniProt P51817); test = enzyme activity; setting = 100 nM, human enzyme, together with: 10 µM ATP; how to read = relative to: untreated; quantity = remaining activity; result = 36%
Structure (SMILES) = CS(C)(=O)=Nc1ccc(-c2ccc(-c3nc4cc(O[C@@H]5CO[C@H]6[C@@H]5OC[C@H]6O)[nH]c4cc3F)cc2)cc1; tested on = Phosphatidylinositol 4,5-bisphosphate 3-kinase catalytic subunit alpha isoform, with p65 alpha (PIK3CA, Homo sapiens, UniProt P42336); test = kinase activity; setting = 10 µM; quantity = inhibition; result = -1%
Structure (SMILES) = Nc1ccc(/C=C/C(=O)N2CCc3c(oc4c(-c5ccc(F)cc5)cc(-c5ccc(C(=O)N6CCC(F)(F)CC6)cn5)cc34)C2)cn1; tested on = MAP kinase-activated protein kinase 2 (MAPKAPK2, Homo sapiens, UniProt P49137); test = binding, competition with immobilised ligand; setting = 1 µM; quantity = remaining binding; result = 95%
Structure (SMILES) = CN(C)[C@H]1C[C@@]23CC[C@@]4(O2)C(=CC[C@]2(C)[C@@H](c5ccc6ccncc6c5)CC[C@H]24)C=C3[C@@H](O)[C@@H]1O; tested on = Scaffold protein ILK (ILK, Homo sapiens, UniProt Q13418); test = probe labelling, inhibitor, KiNativ ATP probe MS; test system = native lysate; setting = 0.1 µM; quantity = inhibition; result = 4%
Structure (SMILES) = CCOCC1C(c2ccc(Cl)c(Cl)c2)CC2CCC1N2C (stereo not shown); tested on = Sodium-dependent dopamine transporter (SLC6A3, Homo sapiens, UniProt Q01959, S422A); test = dopamine uptake; setting = 0.003 µM, 0.03333 h, S422A mutant, together with: [3H]dopamine; how to read = relative to: no inhibitor; quantity = remaining activity; result = 19.9%
Structure (SMILES) = COc1ccccc1C(C[N+](=O)[O-])c1c(-c2ccccc2)[nH]c2ccccc12 (stereo not shown); tested on = Cannabinoid receptor 1 (CNR1, Homo sapiens, UniProt P21554, I169A); test = Gαi1-γ2 dissociation, BRET; quantity = Emax; result = 71.7 ± 2.06%
Structure (SMILES) = CC(C)CC(C(=O)N1CC2(CC1C#N)C(=O)Nc1ccccc12)N(C)C(=O)c1cc2c(F)cc(F)c(F)c2[nH]1 (stereo not shown); tested on = Replicase polyprotein 1ab, main protease (rep, Porcine epidemic diarrhea virus, UniProt P0C6Y4); test = protease activity, inhibitor; setting = 10000 µM; quantity = remaining activity; result = 0%
Structure (SMILES) = Cc1ccc(O[C@H]2CCN(C)C2)cc1C(=O)N[C@H](C)c1cc(-c2cnn(C)c2)nc2ccccc12; tested on = Vero E6; setting = 250 µM; quantity = viability; result = 0.459% and 0.153%
Structure (SMILES) = Cc1ccc2c(C(C[N+](=O)[O-])c3cccs3)c(-c3ccccc3)[nH]c2c1 (stereo not shown); tested on = Cannabinoid receptor 1, with Gi1 (CNR1, Homo sapiens, UniProt P21554); test = Gi1 dissociation, agonist, BRET; quantity = Emax; result = 100 ± 9.13%
Structure (SMILES) = CCCCCn1cc(C(=O)c2cccc3c2CC(C)(C)C3)c2ccccc21; tested on = Cannabinoid receptor 1 (CNR1, Homo sapiens, UniProt P21554, I267L/L193I/L359V); test = cAMP inhibition, agonist, CAMYEL BRET biosensor; setting = together with: forskolin 10 µM; how to read = relative to: reference agonist at wild type; quantity = Emax; result = 110 ± 1.5%
Structure (SMILES) = Cc1sc2c(c1C)C(c1ccc(Cl)cc1)=NC(CC(=O)OC(C)(C)C)c1nnc(C)n1-2 (stereo not shown); tested on = C-C chemokine receptor type 1 (CCR1, Homo sapiens, UniProt P32246); test = ligand displacement, radioligand; setting = 1 µM; quantity = inhibition; result = -4%

Repeated from above:
Structure (SMILES) = COc1ccccc1C(C[N+](=O)[O-])c1c(-c2ccccc2)[nH]c2ccccc12 (stereo not shown); tested on = Cannabinoid receptor 1 (CNR1, Homo sapiens, UniProt P21554, I169A); test = Gαi1-γ2 dissociation, BRET; quantity = Emax; result = 71.7 ± 2.06%
Structure (SMILES) = CC(C)CC(C(=O)N1CC2(CC1C#N)C(=O)Nc1ccccc12)N(C)C(=O)c1cc2c(F)cc(F)c(F)c2[nH]1 (stereo not shown); tested on = Replicase polyprotein 1ab, main protease (rep, Porcine epidemic diarrhea virus, UniProt P0C6Y4); test = protease activity, inhibitor; setting = 10000 µM; quantity = remaining activity; result = 0%
